Assay results collected from several papers.
Each numbered part is a random draw from the data of one study; scales do not carry over between parts. Positions count from the first letter of the parent shown.

Block 1
Target: CCNF, cyclin fold, Cln2 fusion (human)
Technique: yeast growth competition, sequencing
Matrix: yeast
Setting: strong parent motif
Relative to: not given
Reading: higher = stronger binding
Starting sequence: CDC25A docking peptide (human); PPHRRRLLFACSP; partner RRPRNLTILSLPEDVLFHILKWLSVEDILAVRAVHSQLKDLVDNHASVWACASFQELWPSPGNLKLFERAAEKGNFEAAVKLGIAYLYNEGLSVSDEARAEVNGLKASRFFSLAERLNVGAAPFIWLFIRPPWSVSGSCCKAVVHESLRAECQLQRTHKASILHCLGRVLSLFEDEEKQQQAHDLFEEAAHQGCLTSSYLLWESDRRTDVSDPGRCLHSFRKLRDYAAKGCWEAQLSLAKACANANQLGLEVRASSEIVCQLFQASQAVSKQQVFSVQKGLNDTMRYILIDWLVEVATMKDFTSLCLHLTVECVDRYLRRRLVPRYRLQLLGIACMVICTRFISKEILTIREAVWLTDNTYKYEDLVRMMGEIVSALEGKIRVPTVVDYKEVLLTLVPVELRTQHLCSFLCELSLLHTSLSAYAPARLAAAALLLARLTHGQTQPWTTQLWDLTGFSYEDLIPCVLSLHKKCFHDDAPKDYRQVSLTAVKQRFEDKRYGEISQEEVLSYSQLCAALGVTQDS
| Change | normalised enrichment score |
| --- | --- |
| PPHCRRLLFACSP [R4C] | 7.53 |
| TPHRRRLLFACSP [P1T] | 6.78 |
| PPHRRRLLFACST [P13T] | 7.83 |
| PPHRRRLLFACHP [S12H] | 7.38 |
| PPHRRDLLFACSP [R6D] | 0.799 |
| PAHRRRLLFACSP [P2A] | 6.84 |
| PPHRRRLLFICSP [A10I] | 7.07 |
| PPHRRRLLFSCSP [A10S] | 7.68 |
| PPHRCRLLFACSP [R5C] | 1.37 |
| PPHRRRLLFACAP [S12A] | 7.17 |
| PPHRRTLLFACSP [R6T] | 3.29 |
| PPHRRRLLFALSP [C11L] | 8 |
| PEHRRRLLFACSP [P2E] | 6.56 |
| PPHRRRLVFACSP [L8V] | 7.79 |
| PPHRRRLLFAHSP [C11H] | 7.58 |
| PPHRRRLLFACSG [P13G] | 7.51 |

Block 2
Target: ABI1, truncated, D143A, DHFR fusion (Arabidopsis thaliana)
Technique: DHFR PCA, deep sequencing
Matrix: yeast
Setting: methotrexate growth selection, single substitutions
Together with: (+)-ABA 17 µM
Relative to: wild-type fitted maximum
Reading: higher = stronger binding
Starting sequence: PYL1, truncated, DHFR fusion (Arabidopsis thaliana); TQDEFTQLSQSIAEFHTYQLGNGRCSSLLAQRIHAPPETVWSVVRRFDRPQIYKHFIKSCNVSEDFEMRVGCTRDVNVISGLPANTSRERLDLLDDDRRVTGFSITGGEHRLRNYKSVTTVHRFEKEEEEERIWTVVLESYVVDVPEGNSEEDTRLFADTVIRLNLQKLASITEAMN
| Change | relative binding score [%] |
| --- | --- |
| V43Y | 62.9 |
| R74C | -18.1 |
| V137D | 0.302 |
| R113Q | 100 |
| Q51R | 25.4 |
| N165Q | -13.7 |
| G108I | 2.7 |
| D75K | 81.3 |
| T86S | 83.9 |
| V100T | 46.2 |
| A13F | 63.4 |
| Q10P | 80.8 |
| V100F | 16.1 |
| H16M | 17.6 |
| P37V | 74.4 |
| R69K | 88 |

Block 3
Target: RING finger protein unkempt homolog, zinc fingers 1-6, SBP tag (UNK, Homo sapiens, UniProt Q9C0B0, residues 30-357)
Technique: RNA Bind-n-Seq
Form: RNA
Matrix: in vitro
Concentration: 100 nM
Setting: RNA with constant flanks, vertebrate orthologous sites, ends assumed
Relative to: input RNA pool
Reading: higher = stronger binding
Shared flanks, not repeated: GGGAGUUCUACAGUCCGACGAUC … CAACAGAGGAUUGAGCAUCA
| Oligonucleotide | bound/input enrichment [ratio] |
| --- | --- |
| UGCAUUAUUUGACCAGAGUUGAAGUGACAGAGUUUGAAGAUAUCAAAUCAGGUUACAGAAUAGAUUUUGUAAGUCUCCCUCCAUUUUUACCGCCGGGGGGGUCUCACCCUACGCUUCGGU | 0.231 |
| GACCUCCUGAACUUCUAGCUUUCAAGUUGUGGCUGUUUUAGAUACUGAUGUUCUUUCCCUUAAGAGUUGUUUCCUGUUUCCUGCCUUCUCUUCCUCUGUUCCCAAGGUUUGACUCAUGGA | 1.04 |
| UUUUUAUUGAUCAGGUCUGUAAAUGUGUACUAGAAAAUCAGAGUUUAUUUAUAAAUAGAAUAGUUUAUUUAAAGAGGUAUUUUCCUCCUUGAUAUCAUGGUAUGCAUAAUCCUGUGUUAC | 0.422 |
| CAACUCCAUGGUUGAAGGUUCAGAACUCAGGAAAGUUCGAUCCAACUCUAGAAUAUACCACCGGUACUUCCUUUUAGAUGCAGAUAUGCAAUCUCUGCGUUGGGAGCCUUCAAAGAAAGA | 0.273 |
| UGAGUGUUGGAAGAAUAGCAUAUGAGGUUGUGGUCAAAAAGUAGGAGCAGCAGGGGAGAGAAGAUACAGGUAUCAACAGCCAGGUGGUAAAAGGUGCAGAUGAAGGUCACUGAAACUCAA | 0.487 |
| AUUCAAACCUGUGGUGCCAUGGCCUCAUGUCGAAGGAGUAGAAGUGGACUUAGAGUCUAUUAGAAGAAAAAACAAGGCCAAAAAUGAACAAGAGCGCCAUGCUGGAGGAGAGAACCAGAA | 0.469 |
| UGUGCUUAUGCUCUUCUAUGAAAGAGAUGAAUUGGGGAGAACUGUCUCCUUUUUAUAGGUUAGUUUCUUUCUAAAUUAUGACUAAAAAUAUUUUGCUAUUUCUUUCUUUGUAUAUGGACG | 0.49 |

Block 4
Target: JDP2, bZIP domain (human)
Technique: DHFR protein complementation
Matrix: yeast
Setting: single substitutions, most at no-binding floor
Relative to: wild-type JUN-FOS pair
Reading: higher = stronger binding
Starting sequence: JUN, bZIP domain (human); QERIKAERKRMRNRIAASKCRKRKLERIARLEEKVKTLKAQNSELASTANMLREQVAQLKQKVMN; partner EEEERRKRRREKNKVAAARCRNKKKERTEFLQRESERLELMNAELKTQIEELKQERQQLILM
| Change | binding fitness |
| --- | --- |
| R53T | 0.234 natural log |
| L45R | -0.0977 natural log |
| A40V | 0.273 natural log |
| M51T | 0.348 natural log |
| A40G | 0.272 natural log |
| N42A | 0.208 natural log |
| A46T | 0.357 natural log |
| Q55H | 0.304 natural log |
| E54D | 0.199 natural log |
| N42W | 0.185 natural log |
| T48M | 0.219 natural log |
| A57G | 0.328 natural log |
| S47F | 0.29 natural log |
| K36M | 0.407 natural log |
| K39N | 0.301 natural log |
| A49G | 0.0988 natural log |
| M51G | 0.287 natural log |

Block 5
Molecule: RNF26 RING domain (UniProt Q9BY78)
Technique: yeast two-hybrid
Matrix: yeast
Setting: mostly zero background
Relative to: not given
Reading: higher = stronger interaction
| target | lacZ reporter activity |
| --- | --- |
| UBE2Z UBC core domain (UniProt Q9H832) | 2930 |
| UBE2M UBC core domain (UniProt P61081) | 0 |
| UBE2S UBC core domain (UniProt Q16763) | 0 |
| UBE2G1 UBC core domain (UniProt P62253) | 0 |
| UBE2R2 UBC core domain (UniProt Q712K3) | 0 |
| UBE2B UBC core domain (UniProt P63146) | 0 |
| UBE2Q1 UBC core domain (UniProt Q7Z7E8) | 3110 |
| UBE2L3 UBC core domain (UniProt P68036) | 0 |

Block 6
Target: RNA binding protein fox-1 homolog 2, RRM domain, GST-SBP tag (RBFOX2, Homo sapiens, UniProt O43251-10, residues 100-194)
Technique: RNA Bind-n-Seq
Form: RNA
Matrix: in vitro
Concentration: 365 nM
Setting: natural RNA segment, single round, ends assumed
Relative to: no-protein control
Reading: higher = stronger binding
Shared flanks, not repeated: GGGAGUUCUACAGUCCGACGAUC … UGGAAUUCUCGGGUGCCAA
Construct (chain): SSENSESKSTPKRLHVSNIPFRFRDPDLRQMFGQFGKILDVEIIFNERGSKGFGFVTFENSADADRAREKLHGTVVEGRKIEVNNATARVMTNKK
| Oligonucleotide | RBNS enrichment (R) |
| --- | --- |
| UGUUUUGUUUGUUUGUUUGUUUGUGUUUUUGUUCUUUUGAAGAAUAGAGUGGUAUUUAGAAAAUAAAUUGCAUUGCAAAGCUCUUAUCGGCUCAUAUGAGAGAGCAGGUU | 1.65 |
| CUCAGCCUUCAGUCACAUUUAGUCAUGGUCUGCCUGUGAGCGCAGUGAGUUCUCUCCUGACAGCUGUGAGCUCAGCUGGUGUGGGUGAGCCUUUCCUGCAGGAAGAGCCU | 0.431 |
| UUUCUAAACCAGAGGACAAAAGGGGUUAAUGUUACUUUAAAAUUACAUUCUAUAUAUAUAUAAAUAUAUAUAAAUAUAUAUUAAAAUACCAGUUUUUUUUCUCUGGGUGC | 2.21 |
| CUGCAGGGGGGCCCCCACAAUCAUGCCAUUGCUGCAGUAGCUGUGGCCCUAAAGCAGGCCUGCACCCCCAUGUUCCGGGAGUACUCCCUGCAGGUUCUGAAGAAUGCUCG | 0.223 |
| UGCCCUGCAAAUUUGUUUCCCUUAAGGAACCCUCACCAACUAUCUCUGCUGGAUUUGGGAGUUCCGCAUCUUUUGUGGAGGGCAGAGUAUGGACAUCUUACACCCGGUGG | 0.402 |
| UUGAGGAAAACUUGACUGUCAGGCUAGCUGACUCUAGCUUUAUUUCUGCUGCCAGGAAGCACAGUUUAAAAAUGCUAGUCUGGAUACAGAGAUGUUUUUGUUGCAUUGUG | 1.38 |
| CAAGAAAUACAGAGUAAAGCGAAAAUAACUGCUUACCAAUAUUCUGAGAGGUAACAAAUGGGAUAUGGGUUGAGACUGCAUAAAAAACGUACUGCUGGUUGAAUAUCUGA | 0.32 |
| UUCAUCUCAAGUGUAUUGCAGUAAUGGCUGAAUCGGGGUUAACAUCCCUUCCAGGCACAGCGAGUUGGUUCUGCUUUUUGCCUGUAAGCCAAAGAAAAGCCACAUCUAAA | 0.504 |
| GGGAAGGGUCAAAGUGUGGACAUUGAGAAGAGGAGAGGAAAGGAGCAAGAGCUGAACUCCUGCUGCCUGGUAGGCCCCACAAGGCCUAGUCUGGAAGCGUAUGGAAUCAG | 1.03 |
| CAAAGAUUUCACCAUGUGUGUUGUUUUUGUUACUGUCUUAAAGGGUGCACAUUUGUGAUCAGCAUUGUGACUUGGAGAUAAUAAAAUUUAGACUGUAGACUUGACUCUGU | 0.29 |
| AAAUUCGUUUGUCUUCAAUAUAGUUUGAAGAUUAGUCAUUCCAUGAAGGAACAGCCUCUUGAGCUGGGUAUGGUGGCACCCAUCUGUGAGUCCAGCAUUUGGGUAUUGAG | 0.764 |
| UCCAAACAGCAUCAUCCAAAUCCAACUGAGGACAGACGGACUGUCCCGGCCUGGGCCUGGGCUCCUAACACCUGACUGCCAAAGGGCUCCAAUGUGCAUUGUGGACUCGC | 1.89 |

Some of these lines once more (block 2):
| Change | relative binding score [%] |
| --- | --- |
| V43Y | 62.9 |
| R74C | -18.1 |
| V137D | 0.302 |
| R113Q | 100 |
| Q51R | 25.4 |
| N165Q | -13.7 |
| G108I | 2.7 |
| D75K | 81.3 |
| T86S | 83.9 |
| V100T | 46.2 |
